# Measured values collected from several papers.
# Each numbered part is a random draw from the data of one study; scales do not carry over between parts. Several values in a cell are separate wells, animals, samples, runs or records. ± gives the spread as reported.
# Sequence of UniProt Q99640 (whole entry, looked up): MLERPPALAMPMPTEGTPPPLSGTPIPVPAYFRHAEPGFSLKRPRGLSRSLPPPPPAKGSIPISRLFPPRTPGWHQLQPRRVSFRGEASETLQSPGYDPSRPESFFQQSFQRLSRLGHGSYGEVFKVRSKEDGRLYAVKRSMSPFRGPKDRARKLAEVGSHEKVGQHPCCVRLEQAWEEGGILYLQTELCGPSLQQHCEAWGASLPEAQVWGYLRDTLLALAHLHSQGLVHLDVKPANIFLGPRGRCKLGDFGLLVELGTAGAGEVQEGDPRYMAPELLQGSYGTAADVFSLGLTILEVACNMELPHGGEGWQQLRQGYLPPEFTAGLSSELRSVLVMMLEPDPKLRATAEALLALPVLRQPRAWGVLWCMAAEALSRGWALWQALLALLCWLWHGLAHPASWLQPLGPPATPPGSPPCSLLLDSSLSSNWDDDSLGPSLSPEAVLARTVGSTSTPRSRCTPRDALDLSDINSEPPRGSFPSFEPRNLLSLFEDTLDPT

# Series 1
# Structure (SMILES): CCCN1C(=O)C(O)(C(=O)O)Oc2cc(F)ccc21 (stereo not drawn)
organism,assay,test system,conditions,scale,inhibition
Arabidopsis thaliana,hypocotyl length,"Col-0, seedlings",12.5 µg/mL,,22.4%
Arabidopsis thaliana,hypocotyl length,Col-0,"100 µg/mL, 7 days, seed germination, dark",,68.9%
Arabidopsis thaliana,root length,"Col-0, seedlings",50 µg/mL,,65.5%
Arabidopsis thaliana,root length,"Col-0, seedlings",25 µg/mL,baseline: water control,51.1%
Arabidopsis thaliana,root length,"Col-0, seedlings",50 µg/mL,baseline: water control,65.5%
Arabidopsis thaliana,root length,"Col-0, seedlings",6.25 µg/mL,baseline: water control,22.5%
Arabidopsis thaliana,hypocotyl length,Col-0,"12.5 µg/mL, 7 days, seed germination, dark",,22.4%
Arabidopsis thaliana,root length,"Col-0, seedlings",25 µg/mL,,51.1%
Arabidopsis thaliana,hypocotyl length,"Col-0, seedlings",100 µg/mL,,68.9%
Amaranthus retroflexus,fresh weight,,"150 g ai/ha, post-emergence treatment",,66.2% and 64% and 61.6%
Arabidopsis thaliana,hypocotyl length,Col-0,"25.0 µg/mL, 7 days, seed germination, dark",,28.9%
Avena fatua,fresh weight,,"150 g ai/ha, pre-emergence treatment",,51.4% and 54.6% and 50.3%

# Series 2
# Compound: C[C@@H]1CN(c2ccc(-c3cc(C(=O)NCCOCCOCCOCCOCCOCCOCCNC(=O)/C=C/c4[nH]cc(C(=O)N[C@@H](CC(N)=O)c5ccc(F)c(Cl)c5)c4-c4ccc(Cl)cc4F)ccc3F)cc2NC(=O)c2ccc(F)cc2C(F)(F)F)C[C@H](C)N1C
# Effect on: thermal unfolding
# Method: differential scanning fluorimetry
# Tested at: 5.5 µM
# Direction: higher = more unfolded
# DCAF1: DDB1- and CUL4-associated factor 1 (DCAF1, Homo sapiens, UniProt Q9Y4B6)
# Sequence of UniProt Q9Y4B6 (whole entry, looked up): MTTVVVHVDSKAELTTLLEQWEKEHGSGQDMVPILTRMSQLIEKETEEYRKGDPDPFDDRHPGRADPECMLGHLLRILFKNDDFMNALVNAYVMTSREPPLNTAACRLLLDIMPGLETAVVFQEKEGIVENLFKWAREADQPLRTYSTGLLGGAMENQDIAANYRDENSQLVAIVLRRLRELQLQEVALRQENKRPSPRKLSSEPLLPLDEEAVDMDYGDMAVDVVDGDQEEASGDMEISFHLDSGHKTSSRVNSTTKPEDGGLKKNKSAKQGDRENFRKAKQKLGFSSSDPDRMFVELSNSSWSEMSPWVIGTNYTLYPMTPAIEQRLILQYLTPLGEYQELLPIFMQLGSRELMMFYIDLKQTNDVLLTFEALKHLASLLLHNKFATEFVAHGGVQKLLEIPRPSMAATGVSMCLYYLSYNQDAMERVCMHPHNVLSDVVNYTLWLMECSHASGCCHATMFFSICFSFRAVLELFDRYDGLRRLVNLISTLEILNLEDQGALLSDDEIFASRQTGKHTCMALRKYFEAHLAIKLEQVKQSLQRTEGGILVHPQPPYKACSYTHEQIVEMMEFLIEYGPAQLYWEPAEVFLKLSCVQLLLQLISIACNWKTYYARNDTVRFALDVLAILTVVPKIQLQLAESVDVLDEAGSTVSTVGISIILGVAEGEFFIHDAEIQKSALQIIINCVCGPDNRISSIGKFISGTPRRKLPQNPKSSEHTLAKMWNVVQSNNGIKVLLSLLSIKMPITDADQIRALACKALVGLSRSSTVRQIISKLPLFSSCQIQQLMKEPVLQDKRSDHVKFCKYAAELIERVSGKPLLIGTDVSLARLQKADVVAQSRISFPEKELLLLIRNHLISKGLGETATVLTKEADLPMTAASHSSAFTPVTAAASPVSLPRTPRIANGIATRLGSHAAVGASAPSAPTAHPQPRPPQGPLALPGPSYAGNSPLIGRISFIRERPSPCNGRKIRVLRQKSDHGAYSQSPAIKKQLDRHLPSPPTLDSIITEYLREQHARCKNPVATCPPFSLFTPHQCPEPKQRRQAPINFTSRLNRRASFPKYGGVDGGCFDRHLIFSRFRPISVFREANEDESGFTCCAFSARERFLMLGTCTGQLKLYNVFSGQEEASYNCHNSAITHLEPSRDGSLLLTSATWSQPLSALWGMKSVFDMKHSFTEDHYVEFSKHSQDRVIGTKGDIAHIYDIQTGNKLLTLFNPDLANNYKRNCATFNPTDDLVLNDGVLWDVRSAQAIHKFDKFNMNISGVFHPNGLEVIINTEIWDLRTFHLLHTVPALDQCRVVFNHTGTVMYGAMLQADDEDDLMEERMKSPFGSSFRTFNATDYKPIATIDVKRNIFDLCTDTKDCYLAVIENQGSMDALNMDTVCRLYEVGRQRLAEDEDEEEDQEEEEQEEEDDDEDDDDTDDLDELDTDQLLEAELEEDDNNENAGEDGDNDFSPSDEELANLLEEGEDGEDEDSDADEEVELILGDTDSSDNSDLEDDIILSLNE
# WDR5: WD repeat-containing protein 5 (WDR5, Homo sapiens, UniProt P61964)
target,temperature,SYPRO Orange fluorescence [a.u.]
DCAF1,45.2 °C,14600
WDR5,55.21 °C,16700
WDR5,72.61 °C,38200
WDR5,42.2 °C,14300
DCAF1,67.01 °C,51500
WDR5,41 °C,14200

# Other studies, line by line
Compound,target or system,assay,test system,conditions,scale,endpoint,value
"Cc1ccc(O)c(C)c1-c1cnc2[nH]c(-c3cnc(N4CCC5(CC4)CC(N4CCN(c6ccc(N[C@H]7CCC(=O)NC7=O)cc6F)CC4)CO5)nc3)cc2c1C#N (single isomer, unassigned)","PKMYT1 (Homo sapiens, UniProt Q99640)","degrader, Jess immunoblot",HCC1569,24 h,,Dmax,87%
CCOc1ccc2nc(Sc3nc(Nc4ccc(I)cc4)nc(N4CCOCC4)n3)sc2c1,Gaucher fibroblasts,"qPCR, item: GBA1",,"1 µM, 24 h, unit not given",baseline: DMSO,mRNA level,1.06 and 2.21 and 1.63 and 1.72 and 1.8 and 1.18 and 1.39
CCONC(=O)/C=C/CNCCCCN1c2cc(Cl)ccc2CCc2cnn(C)c21.O=C(O)/C=C\C(=O)O,,,human plasma,5 µM,,half-life,0.552 ± 0.127 h
CC(C)C[C@@H]1NC(=O)[C@@H](N(C)C(=O)[C@@H](NC(=O)[C@@H]2C[C@@H](F)CN2C(=O)C2(C(F)(F)F)CC(F)(F)C2)C2CC2)CCCCCCCN(C)C(=O)[C@H](Cc2cc(Cl)cnc2OC2CC2)N(C)C1=O,,immunohistochemistry,"mice, sample A PDX, tumour","oral, 100 mg/kg three times daily for 4 d, 8 h after last dose",,cleaved caspase-3 positive cells,2.24% and 2.15% and 2.84%
CCOC(=O)/C=C/CNCCCCN1c2cc(Cl)ccc2CCc2cnn(C)c21.O=C(O)/C=C\C(=O)O,,,human plasma,5 µM,,half-life,2.5 ± 0.387 h
Cc1nc(C)c(C=[N+]([O-])C(C)(C)C)nc1C,,HPLC-ECD,"MPTP mouse model, striatum",10 mg/kg,,striatal HVA content,0.686 ng/mg tissue and 1.12 ng/mg tissue and 0.488 ng/mg tissue and 0.84 ng/mg tissue and 0.687 ng/mg tissue and 0.695 ng/mg tissue and 0.935 ng/mg tissue

# Excerpt of the above (series 1):
organism,assay,test system,conditions,scale,inhibition
Arabidopsis thaliana,hypocotyl length,Col-0,"100 µg/mL, 7 days, seed germination, dark",,68.9%
Amaranthus retroflexus,fresh weight,,"150 g ai/ha, post-emergence treatment",,66.2% and 64% and 61.6%
